# Assay results from different studies.
# Each line is one published result; not all experiments were run side by side. ± marks the error that the study gave.
SMILES,test,test system,setting,how to read,quantity,value
C=C1CC[C@H](OCCCNC(=O)CCOCCOCCOCCOCCOCCOCCOCCOCCOCCOCCOCCOCCOCCOCCOCCOCCOCCOCCOCCOCCOCCOCCOCCOCCOCCOCCOCCOCCOCCOCCOCCOCCOCCOCCOCCOCCNC(=O)CCN2C(=O)CC(SC[C@H](NC(=O)[C@H](Cc3ccccc3)NC(=O)[C@H](CC(N)=O)NC(=O)[C@H](Cc3c[nH]cn3)NC(=O)[C@@H](NC(=O)[C@H](CC(=O)O)NC(=O)[C@H](CCC(N)=O)NC(=O)[C@H](CC(C)C)NC(=O)[C@H](CCCCN)NC(=O)[C@H](CCCCN)NC(=O)[C@H](CCCNC(=N)N)NC(=O)[C@H](CC(C)C)NC(=O)[C@H](Cc3c[nH]c4ccccc34)NC(=O)[C@H](CCC(=O)O)NC(=O)[C@@H](NC(=O)[C@H](CCCNC(=N)N)NC(=O)[C@H](CCC(=O)O)NC(=O)[C@H](CCSC)NC(=O)[C@H](CO)NC(=O)[C@H](CC(N)=O)NC(=O)[C@H](CC(C)C)NC(=O)[C@H](Cc3c[nH]cn3)NC(=O)[C@H](CCCCN)NC(=O)CNC(=O)[C@H](CC(C)C)NC(=O)[C@H](CC(N)=O)NC(=O)[C@H](Cc3c[nH]cn3)NC(=O)[C@H](CCSC)NC(=O)[C@H](CC(C)C)NC(=O)[C@H](CCC(N)=O)NC(=O)[C@@H](NC(=O)[C@H](CCC(=O)O)NC(=O)[C@H](CO)NC(=O)[C@@H](NC(=O)[C@@H](N)CO)C(C)C)[C@@H](C)CC)C(C)C)C(C)C)C(N)=O)C2=O)C/C1=C/C=C1\CCC[C@]2(C)[C@@H]([C@H](C)CCCC(C)(C)O)CC[C@@H]12 (stereo partly shown),,cynomolgus monkey,"sc, 2 µg/kg every other day, 89 days",reference: 0.7 µg/kg dose,dose-normalised Cmax,0.84
CC(C)C[C@@H](NC(=O)[C@@H](CC(C)C)NC(=O)[C@@H](CC(=O)O)NC(=O)[C@@H](CC(C)C)NC(=O)[C@@H](CC(C)C)NC(=O)[C@@H](CC(C)C)NC(=O)[C@H](NC(=O)[C@@H](CC(=O)O)NC(=O)[C@H](NC(=O)[C@H]1CCCN1C(=O)[C@@H](Cc1ccccc1)NC(=O)[C@@H](CC(C)C)NC(=O)[C@@H](CC(C)C)NC(=O)[C@@H](CC(=O)O)NC(=O)[C@@H](CC(C)C)NC(=O)[C@@H](Cc1ccc(O)cc1)NC(=O)[C@@H](C)NC(=O)[C@@H](CCCNC(=N)N)NC(=O)[C@@H](Cc1c[nH]c2ccccc12)NC(=O)[C@H]1CCCN1C(=O)[C@@H](CC(N)=O)NC(=O)[C@@H](CCC(N)=O)NC(=O)[C@@H](CC(=O)O)NC(=O)[C@@H](CC(=O)O)NC(=O)[C@@H](CSC1CC(=O)N(CCNC(=O)CN2CCN(CC(=O)O)CCN(CC(=O)O)CC2)C1=O)NC(=O)[C@@H](C)N)[C@H](C)O)[C@H](C)O)C(=O)N[C@H](Cc1c[nH]c2ccccc12)C(=O)O (stereo partly shown) [copper-64 labelled],,"male nude mice, PC-3 xenograft","intravenous, 4 h",reference: tumour over bone,tumour-to-bone ratio,2.7 ± 0.6
CCCC[C@H](NC(=O)CNC(=O)CNC(=O)CN1CCN(CC(=O)O)CCN(CC(=O)O)CC1)C(=O)N[C@H]1CC(=O)NCCCC[C@@H](C(N)=O)NC(=O)[C@H](Cc2c[nH]c3ccccc23)NC(=O)[C@H](CCCNC(=N)N)NC(=O)[C@@H](Cc2ccccc2)NC(=O)[C@H](Cc2c[nH]cn2)NC1=O [technetium-99m labelled],,"C57 mouse, pancreas","iv, 0.037 MBq, 4 h",,tissue uptake,0.01 ± 0.01 %ID/g
CN1C(=O)[C@@H](Cc2ccc(O)cc2)NC(=O)CNC(=O)[C@H](Cc2ccc3ccccc3c2)NC(=O)[C@H](CCCNC(=N)N)NC(=O)[C@H]1CCCNC(=O)c1ccc(CNC(=O)CN2CCN(CC(=O)O)CCN(CC(=O)O)CCN(CC(=O)O)CC2)cc1 [gallium-68 labelled],,"C57BL/6 mice, no tumour, excreta","up to 3 h, decay corrected",,excreted dose,72 ± 9%
CC(C)C[C@H](NC(=O)C[C@H](O)[C@H](CC(C)C)NC(=O)[C@H](Cc1c[nH]cn1)NC(=O)CNC(=O)[C@@H](NC(=O)[C@H](C)NC(=O)[C@H](Cc1c[nH]c2ccccc12)NC(=O)[C@H](CCC(N)=O)NC(=O)[C@@H](Cc1ccccc1)NC(=O)CCOCCOCCOCCNC(=O)CN1CCN(CC(=O)O)CCN(CC(=O)O)CC1)C(C)C)C(N)=O [gallium-68 labelled],radio-HPLC,"Balb/c mouse, serum","intravenous, 37 MBq, 5 min",,intact parent compound,88.9%
CC(C)C[C@@H](NC(=O)[C@@H](CC(C)C)NC(=O)[C@@H](CC(=O)O)NC(=O)[C@@H](CC(C)C)NC(=O)[C@@H](CC(C)C)NC(=O)[C@@H](CC(C)C)NC(=O)[C@H](NC(=O)[C@@H](CC(=O)O)NC(=O)[C@H](NC(=O)[C@H]1CCCN1C(=O)[C@@H](Cc1ccccc1)NC(=O)[C@@H](CC(C)C)NC(=O)[C@@H](CC(C)C)NC(=O)[C@@H](CC(=O)O)NC(=O)[C@@H](CC(C)C)NC(=O)[C@@H](Cc1ccc(O)cc1)NC(=O)[C@@H](C)NC(=O)[C@@H](CCCNC(=N)N)NC(=O)[C@@H](Cc1c[nH]c2ccccc12)NC(=O)[C@H]1CCCN1C(=O)[C@@H](CC(N)=O)NC(=O)[C@@H](CCC(N)=O)NC(=O)[C@@H](CC(=O)O)NC(=O)[C@@H](CC(=O)O)NC(=O)[C@@H](CS)NC(=O)[C@@H](C)NC(=S)Nc1ccc(CC2CN(CC(=O)O)CCN(CC(=O)O)CCN2CC(=O)O)cc1)[C@H](C)O)[C@H](C)O)C(=O)N[C@H](Cc1c[nH]c2ccccc12)C(=O)O (stereo partly shown) [copper-64 labelled],,"female BALB/c mice, 4T1 orthotopic tumour","intravenous, 2 h",reference: kidney over large intestine,kidney-to-large intestine ratio,0.29 ± 0.12
N=C(N)NCCC[C@@H]1NC(=O)[C@H](CCCCNC(=O)CNC(=O)CNC(=O)CNC(=O)CC[C@H](NC(=O)CNC(=O)CNC(=O)CNC(=O)CN2CCN(CC(=O)O)CCN(CC(=O)O)CCN(CC(=O)O)CC2)C(=O)NCC(=O)NCC(=O)NCC(=O)NCCCC[C@@H]2NC(=O)[C@@H](Cc3ccccc3)NC(=O)[C@H](CC(=O)O)NC(=O)CNC(=O)[C@H](CCCNC(=N)N)NC2=O)NC(=O)[C@@H](Cc2ccccc2)NC(=O)[C@H](CC(=O)O)NC(=O)CNC1=O [indium-111 labelled],,"female athymic nu/nu mice, eyes","intravenous, 1 h",,tissue uptake,0.84 ± 0.13 %ID/g
CCCC[C@H](NC(=O)COCCOCCNC(=O)CN1CCN(CC(=O)O)CCN(CC(=O)O)CC1)C(=O)N[C@H]1CC(=O)NCCCC[C@@H](C(N)=O)NC(=O)[C@H](Cc2c[nH]c3ccccc23)NC(=O)[C@H](CCCNC(=N)N)NC(=O)[C@@H](Cc2ccccc2)NC(=O)[C@H](Cc2c[nH]cn2)NC1=O [copper-64 labelled],,"C57 mice, kidney","intravenous, 0.37 MBq, 24 h",,tissue uptake,1.47 ± 0.56 %ID/g
N=C(N)NCCC[C@@H]1NC(=O)[C@H](CCCCNC(=O)CC[C@H](NC(=O)CC[C@H](NC(=O)CN2CCN(CC(=O)O)CCN(CC(=O)O)CCN(CC(=O)O)CC2)C(=O)N[C@@H](CCC(=O)NCCCC[C@@H]2NC(=O)[C@@H](Cc3ccccc3)NC(=O)[C@H](CC(=O)O)NC(=O)CNC(=O)[C@H](CCCNC(=N)N)NC2=O)C(=O)NCCCC[C@@H]2NC(=O)[C@@H](Cc3ccccc3)NC(=O)[C@H](CC(=O)O)NC(=O)CNC(=O)[C@H](CCCNC(=N)N)NC2=O)C(=O)NCCCC[C@@H]2NC(=O)[C@@H](Cc3ccccc3)NC(=O)[C@H](CC(=O)O)NC(=O)CNC(=O)[C@H](CCCNC(=N)N)NC2=O)NC(=O)[C@@H](Cc2ccccc2)NC(=O)[C@H](CC(=O)O)NC(=O)CNC1=O [indium-111 labelled],,"female athymic nu/nu mice, heart","intravenous, 1 h",,tissue uptake,1.23 ± 0.11 %ID/g
COC(=O)[C@H](CSSC(C)(C)[C@H](NC(=O)[C@H](CCC(=O)NC[C@H](O)[C@@H](O)[C@H](O)[C@H](O)CO)NC(=O)[C@H](CCC(=O)O)NC(=O)[C@H](CCC(=O)NC[C@H](O)[C@@H](O)[C@H](O)[C@H](O)CO)NC(=O)[C@H](CCC(=O)O)NC(=O)[C@H](CCC(=O)NC[C@H](O)[C@@H](O)[C@H](O)[C@H](O)CO)NC(=O)CC[C@H](NC(=O)c1ccc(NCc2cnc3nc(N)[nH]c(=O)c3n2)cc1)C(=O)O)C(=O)O)NC(=O)CC[C@H](NC(=O)c1ccc(NCc2cnc3nc(N)[nH]c(=N)c3n2)cc1)C(=O)O,,dog liver cytosol,"1 µM, 1 h, 37 °C, acidic pH",reference: pH 7.4,AMT release fold change,≥ 4 fold

# Repeated from above:
SMILES,test,test system,setting,how to read,quantity,value
C=C1CC[C@H](OCCCNC(=O)CCOCCOCCOCCOCCOCCOCCOCCOCCOCCOCCOCCOCCOCCOCCOCCOCCOCCOCCOCCOCCOCCOCCOCCOCCOCCOCCOCCOCCOCCOCCOCCOCCOCCOCCOCCOCCNC(=O)CCN2C(=O)CC(SC[C@H](NC(=O)[C@H](Cc3ccccc3)NC(=O)[C@H](CC(N)=O)NC(=O)[C@H](Cc3c[nH]cn3)NC(=O)[C@@H](NC(=O)[C@H](CC(=O)O)NC(=O)[C@H](CCC(N)=O)NC(=O)[C@H](CC(C)C)NC(=O)[C@H](CCCCN)NC(=O)[C@H](CCCCN)NC(=O)[C@H](CCCNC(=N)N)NC(=O)[C@H](CC(C)C)NC(=O)[C@H](Cc3c[nH]c4ccccc34)NC(=O)[C@H](CCC(=O)O)NC(=O)[C@@H](NC(=O)[C@H](CCCNC(=N)N)NC(=O)[C@H](CCC(=O)O)NC(=O)[C@H](CCSC)NC(=O)[C@H](CO)NC(=O)[C@H](CC(N)=O)NC(=O)[C@H](CC(C)C)NC(=O)[C@H](Cc3c[nH]cn3)NC(=O)[C@H](CCCCN)NC(=O)CNC(=O)[C@H](CC(C)C)NC(=O)[C@H](CC(N)=O)NC(=O)[C@H](Cc3c[nH]cn3)NC(=O)[C@H](CCSC)NC(=O)[C@H](CC(C)C)NC(=O)[C@H](CCC(N)=O)NC(=O)[C@@H](NC(=O)[C@H](CCC(=O)O)NC(=O)[C@H](CO)NC(=O)[C@@H](NC(=O)[C@@H](N)CO)C(C)C)[C@@H](C)CC)C(C)C)C(C)C)C(N)=O)C2=O)C/C1=C/C=C1\CCC[C@]2(C)[C@@H]([C@H](C)CCCC(C)(C)O)CC[C@@H]12 (stereo partly shown),,cynomolgus monkey,"sc, 2 µg/kg every other day, 89 days",reference: 0.7 µg/kg dose,dose-normalised Cmax,0.84
